Published values collected from several papers.
Parts stem from different laboratories: compare values within a part only. Several values in a cell are separate wells, animals, samples, runs or records.
UniProt Q9H422, sequence (whole entry, looked up): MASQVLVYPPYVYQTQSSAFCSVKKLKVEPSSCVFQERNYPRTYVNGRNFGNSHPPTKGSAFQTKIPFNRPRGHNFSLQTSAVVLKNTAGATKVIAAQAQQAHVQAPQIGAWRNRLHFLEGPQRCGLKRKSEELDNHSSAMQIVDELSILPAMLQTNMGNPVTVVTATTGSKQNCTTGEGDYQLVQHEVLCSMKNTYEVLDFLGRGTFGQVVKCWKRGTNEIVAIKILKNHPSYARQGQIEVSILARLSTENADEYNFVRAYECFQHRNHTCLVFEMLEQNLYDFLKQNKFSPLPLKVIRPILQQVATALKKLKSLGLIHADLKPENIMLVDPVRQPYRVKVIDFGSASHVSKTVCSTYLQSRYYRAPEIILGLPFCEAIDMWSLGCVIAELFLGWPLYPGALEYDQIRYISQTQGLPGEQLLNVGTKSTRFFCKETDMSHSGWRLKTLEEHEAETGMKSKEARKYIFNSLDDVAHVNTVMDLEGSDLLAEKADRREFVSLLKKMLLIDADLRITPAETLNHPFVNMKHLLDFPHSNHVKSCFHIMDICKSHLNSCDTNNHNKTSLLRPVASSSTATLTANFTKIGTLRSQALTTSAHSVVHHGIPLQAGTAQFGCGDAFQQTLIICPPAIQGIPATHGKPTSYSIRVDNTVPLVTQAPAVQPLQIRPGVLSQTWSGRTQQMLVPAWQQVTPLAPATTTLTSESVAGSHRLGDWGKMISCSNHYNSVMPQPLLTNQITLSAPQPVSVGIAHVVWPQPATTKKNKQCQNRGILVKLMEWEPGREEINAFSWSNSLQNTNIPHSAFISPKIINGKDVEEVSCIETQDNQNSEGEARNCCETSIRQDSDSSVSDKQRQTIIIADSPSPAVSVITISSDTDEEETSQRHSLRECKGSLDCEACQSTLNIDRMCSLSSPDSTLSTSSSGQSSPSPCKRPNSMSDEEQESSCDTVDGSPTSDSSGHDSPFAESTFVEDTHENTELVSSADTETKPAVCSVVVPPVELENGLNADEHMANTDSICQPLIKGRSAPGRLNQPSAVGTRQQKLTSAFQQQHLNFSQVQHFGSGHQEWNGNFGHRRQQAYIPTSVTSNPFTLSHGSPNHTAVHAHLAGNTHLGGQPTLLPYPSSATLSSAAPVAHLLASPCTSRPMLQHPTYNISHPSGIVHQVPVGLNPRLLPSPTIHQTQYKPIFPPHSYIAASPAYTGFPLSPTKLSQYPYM
UniProt Q5T848, sequence (whole entry, looked up): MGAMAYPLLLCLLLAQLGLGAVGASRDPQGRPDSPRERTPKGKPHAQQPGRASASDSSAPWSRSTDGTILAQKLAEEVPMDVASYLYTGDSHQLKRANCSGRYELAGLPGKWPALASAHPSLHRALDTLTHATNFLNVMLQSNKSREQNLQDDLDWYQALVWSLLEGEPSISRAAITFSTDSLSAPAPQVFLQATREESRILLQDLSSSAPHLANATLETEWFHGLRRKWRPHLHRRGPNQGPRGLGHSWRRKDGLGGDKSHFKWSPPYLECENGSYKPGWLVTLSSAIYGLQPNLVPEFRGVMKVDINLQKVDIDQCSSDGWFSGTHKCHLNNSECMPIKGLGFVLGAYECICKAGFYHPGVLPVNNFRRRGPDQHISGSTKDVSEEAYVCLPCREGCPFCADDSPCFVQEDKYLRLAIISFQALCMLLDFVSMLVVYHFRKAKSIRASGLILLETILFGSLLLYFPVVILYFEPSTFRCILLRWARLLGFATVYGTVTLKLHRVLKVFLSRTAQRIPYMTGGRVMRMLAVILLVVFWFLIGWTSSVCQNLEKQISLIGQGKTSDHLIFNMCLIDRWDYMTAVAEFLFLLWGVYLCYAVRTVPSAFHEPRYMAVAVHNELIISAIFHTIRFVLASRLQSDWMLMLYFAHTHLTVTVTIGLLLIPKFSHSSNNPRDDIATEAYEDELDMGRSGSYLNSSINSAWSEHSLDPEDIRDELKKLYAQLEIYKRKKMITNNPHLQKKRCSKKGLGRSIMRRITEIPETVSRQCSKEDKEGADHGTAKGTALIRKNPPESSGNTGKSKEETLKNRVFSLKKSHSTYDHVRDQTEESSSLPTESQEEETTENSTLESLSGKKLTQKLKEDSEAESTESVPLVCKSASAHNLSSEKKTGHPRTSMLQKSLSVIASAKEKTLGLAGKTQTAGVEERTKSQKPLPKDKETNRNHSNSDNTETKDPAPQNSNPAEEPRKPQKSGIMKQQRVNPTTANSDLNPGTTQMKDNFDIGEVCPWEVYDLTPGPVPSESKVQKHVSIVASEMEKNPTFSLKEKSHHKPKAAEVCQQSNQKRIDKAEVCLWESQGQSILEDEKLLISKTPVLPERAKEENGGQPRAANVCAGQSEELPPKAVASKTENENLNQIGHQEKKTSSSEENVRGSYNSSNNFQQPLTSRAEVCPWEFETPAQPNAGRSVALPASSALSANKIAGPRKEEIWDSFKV

Study 1
Compound: O=C1CCC(N2Cc3cc(C4CCN(Cc5ccccc5)CC4)ccc3C2=O)C(=O)N1 (stereo not drawn)
Action: degrader
DNA-binding protein Ikaros: DNA-binding protein Ikaros (Homo sapiens, UniProt Q13422)
UniProt Q13422, sequence (whole entry, looked up): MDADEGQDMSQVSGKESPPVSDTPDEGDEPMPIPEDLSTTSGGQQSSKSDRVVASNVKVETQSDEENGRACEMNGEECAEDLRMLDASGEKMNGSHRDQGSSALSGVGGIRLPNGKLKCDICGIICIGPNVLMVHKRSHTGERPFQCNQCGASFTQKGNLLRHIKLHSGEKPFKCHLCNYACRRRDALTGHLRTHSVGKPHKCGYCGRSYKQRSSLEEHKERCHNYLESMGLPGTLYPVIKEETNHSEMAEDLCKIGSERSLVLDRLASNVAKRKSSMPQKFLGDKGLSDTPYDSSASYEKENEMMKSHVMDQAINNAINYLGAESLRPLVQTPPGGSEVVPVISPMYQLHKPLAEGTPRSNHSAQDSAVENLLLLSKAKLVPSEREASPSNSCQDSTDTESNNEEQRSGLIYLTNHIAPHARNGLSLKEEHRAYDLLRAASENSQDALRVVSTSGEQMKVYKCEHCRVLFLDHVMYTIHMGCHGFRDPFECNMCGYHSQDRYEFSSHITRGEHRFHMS
Zinc finger protein Aiolos: Zinc finger protein Aiolos (Homo sapiens, UniProt Q9UKT9)
UniProt Q9UKT9, sequence (whole entry, looked up): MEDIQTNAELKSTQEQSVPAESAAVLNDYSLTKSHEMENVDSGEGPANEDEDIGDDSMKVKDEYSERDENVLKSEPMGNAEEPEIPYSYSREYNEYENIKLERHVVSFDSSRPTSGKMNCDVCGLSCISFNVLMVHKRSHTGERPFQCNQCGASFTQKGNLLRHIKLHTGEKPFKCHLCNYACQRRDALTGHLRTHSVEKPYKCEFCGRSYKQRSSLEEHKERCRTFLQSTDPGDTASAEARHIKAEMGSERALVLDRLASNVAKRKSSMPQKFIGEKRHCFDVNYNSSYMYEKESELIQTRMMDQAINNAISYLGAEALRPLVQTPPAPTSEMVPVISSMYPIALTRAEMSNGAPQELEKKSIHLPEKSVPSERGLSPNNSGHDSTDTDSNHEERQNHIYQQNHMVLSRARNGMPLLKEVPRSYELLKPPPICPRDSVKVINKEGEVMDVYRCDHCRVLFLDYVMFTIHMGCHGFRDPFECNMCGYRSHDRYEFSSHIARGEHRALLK
IKZF4: Zinc finger protein Eos (IKZF4, Homo sapiens, UniProt Q9H2S9)
UniProt Q9H2S9, sequence (whole entry, looked up): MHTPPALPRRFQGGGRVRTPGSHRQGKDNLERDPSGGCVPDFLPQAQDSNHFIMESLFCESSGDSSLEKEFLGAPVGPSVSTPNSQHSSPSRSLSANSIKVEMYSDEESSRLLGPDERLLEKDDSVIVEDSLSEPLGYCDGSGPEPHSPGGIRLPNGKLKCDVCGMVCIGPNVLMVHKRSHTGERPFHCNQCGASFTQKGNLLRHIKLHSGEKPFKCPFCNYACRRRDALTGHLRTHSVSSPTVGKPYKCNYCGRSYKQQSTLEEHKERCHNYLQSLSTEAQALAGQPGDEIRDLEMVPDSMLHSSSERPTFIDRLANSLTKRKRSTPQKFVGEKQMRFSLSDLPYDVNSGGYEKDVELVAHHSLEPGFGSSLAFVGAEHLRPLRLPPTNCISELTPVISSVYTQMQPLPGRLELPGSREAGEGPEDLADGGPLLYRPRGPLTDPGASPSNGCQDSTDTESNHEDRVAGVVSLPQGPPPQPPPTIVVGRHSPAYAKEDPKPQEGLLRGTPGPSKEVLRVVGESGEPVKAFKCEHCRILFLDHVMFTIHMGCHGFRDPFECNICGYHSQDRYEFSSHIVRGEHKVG
CSNK1A1: Casein kinase I isoform alpha (CSNK1A1, Homo sapiens, UniProt P48729)
UniProt P48729, sequence (whole entry, looked up): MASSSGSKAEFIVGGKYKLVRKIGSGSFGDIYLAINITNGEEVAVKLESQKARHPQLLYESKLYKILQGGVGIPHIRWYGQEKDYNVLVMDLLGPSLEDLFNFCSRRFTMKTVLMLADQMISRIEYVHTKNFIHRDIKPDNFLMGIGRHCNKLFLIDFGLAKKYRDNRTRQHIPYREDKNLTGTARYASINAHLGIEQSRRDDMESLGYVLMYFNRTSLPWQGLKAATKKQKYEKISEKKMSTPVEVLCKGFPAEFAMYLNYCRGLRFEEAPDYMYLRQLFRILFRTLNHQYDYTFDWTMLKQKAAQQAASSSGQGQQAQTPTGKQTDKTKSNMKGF
GSPT1: Eukaryotic peptide chain release factor GTP-binding subunit ERF3A (GSPT1, Homo sapiens, UniProt P15170)
UniProt P15170, sequence (whole entry, looked up): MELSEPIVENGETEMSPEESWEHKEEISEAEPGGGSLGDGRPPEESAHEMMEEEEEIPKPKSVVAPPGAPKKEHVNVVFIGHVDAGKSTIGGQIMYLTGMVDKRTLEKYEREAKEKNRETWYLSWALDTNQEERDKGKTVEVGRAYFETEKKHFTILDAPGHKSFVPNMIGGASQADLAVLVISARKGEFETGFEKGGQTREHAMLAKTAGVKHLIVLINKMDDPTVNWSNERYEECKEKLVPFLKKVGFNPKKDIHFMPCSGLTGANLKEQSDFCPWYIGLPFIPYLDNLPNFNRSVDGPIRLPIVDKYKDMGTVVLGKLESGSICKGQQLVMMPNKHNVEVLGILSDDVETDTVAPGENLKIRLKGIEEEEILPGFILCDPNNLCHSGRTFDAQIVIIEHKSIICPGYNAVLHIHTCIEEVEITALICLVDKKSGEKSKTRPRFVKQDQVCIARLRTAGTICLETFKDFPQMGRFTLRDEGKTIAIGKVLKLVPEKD
It gave 90.8% and 93.8% for remaining protein (DNA-binding protein Ikaros; HiBiT; HEK293; 0.004572 µM).
The remaining protein was 94.5% (Zinc finger protein Aiolos; HiBiT; HEK293; 0.04115 µM, 6 h).
It gave 98.3% for remaining protein (DNA-binding protein Ikaros; HiBiT; HEK293; 0.0005081 µM, 6 h).
It gave 111% for remaining protein (IKZF4; HiBiT; HEK293; 0.3333 µM, 6 h).
For CSNK1A1; HiBiT; HEK293; 0.3704 µM, 6 h: remaining protein read 92.2%.
It gave 95.1% and 110% for remaining protein (GSPT1; HiBiT; HEK293; 3.333 µM).
For CSNK1A1; HiBiT; HEK293; 0.01372 µM, 6 h: remaining protein read 90.7%.
IKZF4; HiBiT; HEK293; 0.03704 µM, 3 h — remaining protein: 124%.
It gave 85.5% and 92.5% for remaining protein (Zinc finger protein Aiolos; HiBiT; HEK293; 0.01372 µM).
GSPT1; HiBiT; HEK293; 0.0001694 µM, 6 h — remaining protein: 110%.
It gave 87.6% for remaining protein (CRBN/Zinc finger protein Helios (Homo sapiens, UniProt Q96SW2+Q9UKS7); flow cytometry; primary human regulatory T cells; 0.1111 µM, 3 h).
The remaining protein was 70% (Sal-like protein 4 (SALL4, Homo sapiens, UniProt Q9UJQ4); HiBiT; HEK293; 0.001524 µM, 6 h).

Study 2
Target: Diamine acetyltransferase 1 (Homo sapiens, UniProt P21673)
Action: inhibitor
Concentration: 10 µM
Relative to: control
Construct (P21673 1-171): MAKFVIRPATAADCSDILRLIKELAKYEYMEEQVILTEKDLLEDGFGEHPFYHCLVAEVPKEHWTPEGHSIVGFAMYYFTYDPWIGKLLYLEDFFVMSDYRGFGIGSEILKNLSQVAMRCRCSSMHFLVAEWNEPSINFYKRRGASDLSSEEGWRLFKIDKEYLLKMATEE
O=C(/C=C/C=C/c1ccc2c(c1)OCO2)N1CCCCC1 gave a remaining activity of 108%.
CCCCCCCCCCCCCCCCCCCCCCCC gave a remaining activity of 100%.
O=C(O)c1cccc(O)c1O has a remaining activity of 101%.
The remaining activity of O=CCc1ccccc1 is reported as 103%.
For COc1cc(CC(=O)O)ccc1O, the remaining activity was 105%.
CC(C)[C@H](N)C(=O)O gave a remaining activity of 91.3%.
COc1c2ccoc2c(OC)c2oc(=O)ccc12 gave a remaining activity of 94.2%.
The remaining activity of COc1cc([C@H]2OC[C@H]3[C@@H]2CO[C@@H]3c2ccc(O[C@@H]3O[C@H](CO)[C@@H](O)[C@H](O)[C@H]3O)c(OC)c2)ccc1O[C@@H]1O[C@H](CO)[C@@H](O)[C@H](O)[C@H]1O is reported as 99.8%.
With O=c1cc(-c2ccc(O)cc2)oc2c([C@@H]3OC[C@@H](O)[C@H](O)[C@H]3O)c(O)c([C@@H]3O[C@H](CO)[C@@H](O)[C@H](O)[C@H]3O)c(O)c12 the remaining activity was 100%.

Study 3
SMILES: NC(N)=NC(=O)c1nc(Cl)c(N2CCCCCC2)nc1N
Read-out: β-arrestin recruitment
Action: agonist
Technique: PRESTO-Tango
Concentration: 10 µM
Relative to: untreated
For Retinoic acid-induced protein 3 (GPRC5A, Homo sapiens, UniProt Q8NFJ5): “fold over basal” read 0.76.
It gave 0.72 for “fold over basal” (Probable G-protein coupled receptor 45 (GPR45, Homo sapiens, UniProt Q9Y5Y3)).
FFAR4 (Homo sapiens, UniProt Q5NUL3) — “fold over basal”: 2.23.
The “fold over basal” was 0.82 (LPAR2 (Homo sapiens, UniProt Q9HBW0)).
It gave 0.87 for “fold over basal” (Relaxin receptor 1 (RXFP1, Homo sapiens, UniProt Q9HBX9)).
The “fold over basal” was 1.23 (Probable G-protein coupled receptor 174 (Homo sapiens, UniProt Q9BXC1)).
It gave 1.01 for “fold over basal” (CRHR2 (Homo sapiens, UniProt Q13324)).
It gave 0.91 for “fold over basal” (CCR5 (Homo sapiens, UniProt P51681)).
Probable G-protein coupled receptor 19 (GPR19, Homo sapiens, UniProt Q15760) — “fold over basal”: 1.36.
Metabotropic glycine receptor (GPR158, Homo sapiens, UniProt Q5T848) — “fold over basal”: 0.6.

Study 4
SMILES: C[C@H](c1ccnc(Nc2nc3ccc(-c4cc(N(C)C)ncn4)cc3[nH]2)c1)N1CCN(C(=O)CC(F)(F)F)CC1
Technique: competition with immobilised ligand
Concentration: 0.1 µM
For CAMK2D (Homo sapiens, UniProt Q13557); cell-free assay: remaining binding read 70%.
The remaining binding was 100% (DDR2 (Homo sapiens, UniProt Q16832); cell-free assay).
For MYLK (Homo sapiens, UniProt Q15746); cell-free assay: remaining binding read 100%.
For MAPK6 (Homo sapiens, UniProt Q16659); cell-free assay: remaining binding read 86%.
Tyrosine-protein kinase JAK1, JH2 (JAK1, Homo sapiens, UniProt P23458); cell-free assay — remaining binding: 100%.
For GRK2 (Homo sapiens, UniProt P25098); cell-free assay: remaining binding read 100%.
For PHKG2 (Homo sapiens, UniProt P15735); cell-free assay: remaining binding read 81%.
The remaining binding was 100% (PRKCQ (Homo sapiens, UniProt Q04759); cell-free assay).
STK17A (Homo sapiens, UniProt Q9UEE5); binding — remaining binding: 40%.
STK16 (Homo sapiens, UniProt O75716); cell-free assay — remaining binding: 86%.
The remaining binding was 95% (GAK (Homo sapiens, UniProt O14976); cell-free assay).
CSNK1D (Homo sapiens, UniProt P48730); cell-free assay — remaining binding: 89%.
FLT4 (Homo sapiens, UniProt P35916); cell-free assay — remaining binding: 92%.
For FLT3 (Homo sapiens, UniProt P36888, D835V); cell-free assay: remaining binding read 32%.
Tyrosine-protein kinase ABL1, non-phosphorylated (ABL1, Homo sapiens, UniProt P00519, F317L); cell-free assay — remaining binding: 100%.
CDK18 (Homo sapiens, UniProt Q07002); cell-free assay — remaining binding: 89%.
For MAP2K7 (Homo sapiens, UniProt O14733); cell-free assay: remaining binding read 92%.
It gave 100% for remaining binding (Non-receptor tyrosine-protein kinase TYK2, JH2 (TYK2, Homo sapiens, UniProt P29597); cell-free assay).
For Aurora kinase C (AURKC, Homo sapiens, UniProt Q9UQB9); cell-free assay: remaining binding read 100%.
SRPK3 (Homo sapiens, UniProt Q9UPE1); cell-free assay — remaining binding: 100%.
Tyrosine-protein kinase ABL1, non-phosphorylated (ABL1, Homo sapiens, UniProt P00519, T315I); cell-free assay — remaining binding: 100%.
For HIPK3 (Homo sapiens, UniProt Q9H422); cell-free assay: remaining binding read 100%.
EPHA4 (Homo sapiens, UniProt P54764); cell-free assay — remaining binding: 98%.

A few entries again (study 1):
The remaining protein was 70% (Sal-like protein 4 (SALL4, Homo sapiens, UniProt Q9UJQ4); HiBiT; HEK293; 0.001524 µM, 6 h).
For CSNK1A1; HiBiT; HEK293; 0.3704 µM, 6 h: remaining protein read 92.2%.
IKZF4; HiBiT; HEK293; 0.03704 µM, 3 h — remaining protein: 124%.
It gave 98.3% for remaining protein (DNA-binding protein Ikaros; HiBiT; HEK293; 0.0005081 µM, 6 h).
GSPT1; HiBiT; HEK293; 0.0001694 µM, 6 h — remaining protein: 110%.
It gave 85.5% and 92.5% for remaining protein (Zinc finger protein Aiolos; HiBiT; HEK293; 0.01372 µM).
The remaining protein was 94.5% (Zinc finger protein Aiolos; HiBiT; HEK293; 0.04115 µM, 6 h).
For CSNK1A1; HiBiT; HEK293; 0.01372 µM, 6 h: remaining protein read 90.7%.
It gave 95.1% and 110% for remaining protein (GSPT1; HiBiT; HEK293; 3.333 µM).
